Published values collected from several papers.
Each numbered part is a random draw from the data of one study; scales do not carry over between parts. Positions count from the first letter of the parent shown.

Set 1 — target: UBE2O UBC core domain (UniProt Q9C0C9); method: yeast two-hybrid; medium: yeast; setting: mostly zero background; reference: not given; reading: higher = stronger interaction; measurement: lacZ reporter activity
B1: RNF5 RING domain (UniProt Q99942); chain ERGGAGATFECNICLETAREAVVSVCGHLYCWPCLHQWLETRPERQECPVCKAGISREKVVP
B2: TRIM10 RING domain (UniProt Q9UDY6); chain SVTSLADEVNCPICQGTLREPVTIDCGHNFCRACLTRYCEIPGPDLEESPTCPLCKEPFRPGSFRP
B3: RNF14 RING domain (UniProt Q9UBS8); chain IKCFNSKLFLCSICFCEKLGSECMYFLECRHVYCKACLKDYFEIQIRDGQVQCLNCPEPKCPSVATPGQVK
B4: MSL2 RING domain (UniProt Q9HCI7); chain LLPYFRQSLSCCVCGHLLQDPIAPTNSTCQHYVCKTCKGKKMMMKPSCSWCKDYEQFEENKQ
B5: TRIM3 RING domain (UniProt O75382); chain VQPMDKQFLVCSICLDRYQCPKVLPCLHTFCERCLQNYIPAQSLTLSCPVCRQTSILPEQGV
B6: RNF150 RING domain (UniProt Q9ULK6); chain DKETESDFDNCAVCIEGYKPNDVVRILPCRHLFHKSCVDPWLLDHRTCPMCKMNILKALGIP
B7: UBE4A RING domain (UniProt Q14139); chain LQQQEEETYADACDEFLDPIMSTLMCDPVVLPSSRVTVDRSTIARHLLSDQTDPFNRSPLTMDQIRPNTELKEKIQRWLAERKQQKEQLE
B8: RNF43 RING domain (UniProt Q68DV7); chain SGSSCSSAPVCAICLEEFSEGQELRVISCLHEFHRNCVDPWLHQHRTCPLCMFNITEGDSFS
B9: RNF149 RING domain (UniProt Q8NC42); chain EKGIDVDAENCAVCIENFKVKDIIRILPCKHIFHRICIDPWLLDHRTCPMCKLDVIKALGYW
B10: PHF7 RING domain (UniProt Q9BWX1); chain IQHGHVGEESCILCCEDLSQQSVENIQSPCCSQAIYHRKCIQKYAHTSAKHFFKCPQCNNRKEFPQEML
Target sequence (chain): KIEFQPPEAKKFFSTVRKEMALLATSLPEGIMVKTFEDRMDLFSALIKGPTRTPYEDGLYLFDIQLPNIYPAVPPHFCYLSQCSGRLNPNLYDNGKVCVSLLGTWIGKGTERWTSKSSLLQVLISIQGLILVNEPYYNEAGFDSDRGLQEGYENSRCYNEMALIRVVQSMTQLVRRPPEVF
B1 (RNF5 RING domain): 0
B2 (TRIM10 RING domain): 0
KIKDLNEHIVCCLCAGYFVDATTITECLHTFCKSCIVKYLQTSKYCPMCNIKIHETQPLL (PCGF1 RING domain (UniProt Q9BSM1)): 0
SYEDKSNDFVCPICFDMIEEAYMTKCGHSFCYKCIHQSLEDNNRCPKCNYVVDNIDHLY (COP1 RING domain (UniProt Q8NHY2)): 0
B3 (RNF14 RING domain): 0
B4 (MSL2 RING domain): 0
B5 (TRIM3 RING domain): 0
B6 (RNF150 RING domain): 0
B7 (UBE4A RING domain): 0
LKQVSIRENCCSLCCDEVADTQLKPCGHSDLCMDCALQLETCPLCRKEIVSRIRQI (RSPRY1 RING domain (UniProt Q96DX4)): 0
B8 (RNF43 RING domain): 0
B9 (RNF149 RING domain): 0
B10 (PHF7 RING domain): 0
MANWVFCNRCFQPPHRTSCFSLTNCGHVYCDACLGKGKKNECLICKAPCRTVLLSK (RNF212 RING domain (UniProt Q495C1)): 0
QLQDEEDDSLCRICMDAVIDCVLLECGHMVTCTKCGKRMSECPICRQYVVRAVHVF (RNF34 RING domain (UniProt Q969K3)): 0

Set 2 — target: HLF, bZIP domain (human); method: DHFR protein complementation; medium: yeast; reference: wild-type JUN-FOS pair; reading: higher = stronger binding; measurement: binding fitness
Setting: single substitutions, most at no-binding floor
Starting sequence: JUN, bZIP domain (human); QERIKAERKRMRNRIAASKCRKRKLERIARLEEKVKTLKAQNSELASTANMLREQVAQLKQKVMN; partner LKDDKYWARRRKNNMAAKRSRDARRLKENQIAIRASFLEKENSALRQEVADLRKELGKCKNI
L31F: -1.13 natural log
E33N: -1.33 natural log
K34G: -1.42 natural log
T48V: -1.37 natural log
R53S: -1.5 natural log
T37S: -1.44 natural log
S47F: -1.43 natural log
L52H: -1.49 natural log
M51C: -1.48 natural log
A29C: -1.22 natural log
I28P: -1.42 natural log
L31W: -1.49 natural log
V56R: -1.43 natural log
T48K: -1.45 natural log
E44Y: -1.57 natural log
T48P: -1.5 natural log
E54A: -1.49 natural log
A46D: -1.48 natural log
A49Y: -1.16 natural log
Q55Y: -1.68 natural log
K39R: -1.33 natural log
L52G: -1.52 natural log
N42R: -1.46 natural log
E54R: -1.34 natural log

Set 3 — target: CCNF, cyclin fold, Cln2 fusion (human); method: yeast growth competition, sequencing; medium: yeast; setting: strong parent motif; reference: not given; reading: higher = stronger binding; measurement: normalised enrichment score
Starting sequence: HASPIN docking peptide (human); ASLRSVLFGLMNS
ASLRSVLFGAMNS [L10A]: 1.38
ASARSVLFGLMNS [L3A]: 1.19
ASLRSVLFGLMAS [N12A]: 2.73
ASLRAVLFGLMNS [S5A]: 1.94
ASLRSVLFGLANS [M11A]: 1.7
ASLRSVAFGLMNS [L7A]: 0.812

Set 4 — method: universal PBM; form: double-stranded DNA, one strand shown; medium: in vitro; tested at: 600 nM; reading: higher = stronger binding; measurement: E-score
Target: Sal-like protein 4, full length isoform A (SALL4, Homo sapiens, UniProt Q9UJQ4, residues 1-1053)
UniProt Q9UJQ4, sequence (whole entry, looked up): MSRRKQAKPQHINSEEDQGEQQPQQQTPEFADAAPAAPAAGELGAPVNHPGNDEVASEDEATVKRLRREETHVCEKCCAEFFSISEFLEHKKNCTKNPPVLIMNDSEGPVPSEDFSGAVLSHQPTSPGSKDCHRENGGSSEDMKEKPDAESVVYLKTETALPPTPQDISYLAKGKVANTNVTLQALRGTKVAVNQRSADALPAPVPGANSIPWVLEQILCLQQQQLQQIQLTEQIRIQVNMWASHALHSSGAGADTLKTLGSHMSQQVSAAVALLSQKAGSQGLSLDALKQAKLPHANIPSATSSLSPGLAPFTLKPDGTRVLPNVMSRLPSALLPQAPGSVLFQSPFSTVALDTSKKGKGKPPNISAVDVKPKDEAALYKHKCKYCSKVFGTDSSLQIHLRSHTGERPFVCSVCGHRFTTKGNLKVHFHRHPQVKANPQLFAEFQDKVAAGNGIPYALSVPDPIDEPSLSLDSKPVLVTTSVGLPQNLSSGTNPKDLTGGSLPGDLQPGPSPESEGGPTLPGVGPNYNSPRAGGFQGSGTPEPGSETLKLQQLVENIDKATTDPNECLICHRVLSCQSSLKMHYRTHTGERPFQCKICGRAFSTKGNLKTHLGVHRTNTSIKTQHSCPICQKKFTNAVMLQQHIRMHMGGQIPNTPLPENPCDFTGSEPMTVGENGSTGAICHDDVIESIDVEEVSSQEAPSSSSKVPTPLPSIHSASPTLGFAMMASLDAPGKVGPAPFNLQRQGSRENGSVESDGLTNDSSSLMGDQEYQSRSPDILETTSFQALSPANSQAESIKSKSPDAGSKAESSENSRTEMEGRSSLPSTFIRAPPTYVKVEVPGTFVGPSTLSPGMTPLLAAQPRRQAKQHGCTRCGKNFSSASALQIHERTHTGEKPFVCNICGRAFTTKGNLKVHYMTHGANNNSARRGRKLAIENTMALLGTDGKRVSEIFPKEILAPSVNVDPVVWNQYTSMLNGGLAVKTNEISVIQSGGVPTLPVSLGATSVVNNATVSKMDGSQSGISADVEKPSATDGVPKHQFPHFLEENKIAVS
Setting: 8-mer, flanks averaged, mean of replicates
AGGCCAAT: 0.0362
AAGACCAT: 0.0463
ACGTAGTG: -0.121
AAATCAGA: 0.134
AGATGGGC: -0.24
CGTCTCCA: -0.108
AGCAAGTC: -0.206
GGCAACCA: -0.158
AGGAGGGG: -0.16
GAGGACAC: -0.2
GACCAGTA: -0.236
ATTCCTTA: 0.0922
CGGGCCAC: -0.31
AGCTGGGG: -0.3
ATTATAGG: 0.33
ACCAGGGT: -0.302
ACATCTCA: 0.172
TCAACTGA: 0.117
ATTATCGG: 0.119
CTGGTCCC: -0.329

A few entries again (set 4):
CGTCTCCA: -0.108
ACGTAGTG: -0.121
AGGCCAAT: 0.0362
AGCTGGGG: -0.3
CTGGTCCC: -0.329
AGCAAGTC: -0.206
ATTATAGG: 0.33
ACATCTCA: 0.172
ATTATCGG: 0.119
